Results gathered from unrelated publications.
Lines come from different studies, so protocols differ.
Cell line: HepG2

Compound | assay | system | conditions | endpoint | value
CCCCCCCC(=O)N[C@@H](CCN)C(=O)N[C@H](C(=O)N[C@@H](CCN)C(=O)N[C@H]1CCNC(=O)[C@H]([C@@H](C)O)NC(=O)[C@H](CCN)NC(=O)[C@H](CCN)NC(=O)[C@H](CC(C)C)NC(=O)[C@@H](Cc2ccccc2)NC(=O)[C@H](CCN)NC1=O)[C@@H](C)O | cell growth or viability, MTT | – | 48 h | IC50 | > 1280 µg/mL
C[N+](C)(CF)CCO | cell viability | galactose medium | 24 h, mitochondrial toxicity | IC50 | > 150 µM
COc1ccc2ncc(F)c(C(O)C[C@H]3OC[C@H](NCc4ccc5c(c4)OCCO5)CO3)c2c1 (stereo partly drawn) | cytotoxicity | – | 24 h | IC50 | > 128 µg/mL
CC[C@H](C)[C@@H](C(=O)N[C@@H](Cc1ccc(O)cc1)C(=O)N1CCC[C@H]1C(=O)N[C@@H](Cc1ccccc1)C(=O)O)n1cc(C(Cc2ccc(O)cc2)NC(=O)[C@@H](NC(=O)[C@H](CCCNC(=N)N)NC(=O)[C@@H](N)CC(=O)O)C(C)C)nn1 (stereo partly drawn) | cell growth or viability, MTT | – | 50 µM, 24 h | viability | 80.3%
COc1c(Br)cc(CCNC2=CC3=NCCc4c[nH]c(c43)C2=O)cc1Br | cell growth or viability, MTT | – | 72 h | CC50 | 2 µM
COc1ccc2ncc(F)c(C(O)C[C@H]3OC[C@H](NCc4ccc(Cl)c(Cl)c4)CO3)c2n1 (stereo partly drawn) | cytotoxicity | – | 24 h | IC50 | 52.7 µg/mL
C[C@@H]1C(=O)O[C@@H](C)/C=C/C=C\[C@@H](C)[C@@H]2C=C[C@@H]3C[C@]4(C)O[C@@H]4[C@@H](C)[C@H]3[C@@H]2C(=O)C(Cl)(Cl)C1=O | cell growth or viability, MTT | – | 5 days | IC50 | > 0.93 µg/mL
c1cc2nc(c1)-c1cccc(n1)CCCc1ccc(cc1)OCCCCCCOc1ccc(cc1)CCC2 | cell growth or viability, MTT | – | 25 µM, 24 h | viability | 87.4%
COc1ccc2nccc(CC[C@H]3OC[C@H](NC(=O)c4ccc(C(C)(C)C)cc4)CO3)c2c1 | cytotoxicity | – | 24 h | IC50 | 1.31 µg/mL
CCCCCCCC[C@@H]1NC(=O)[C@@H](Cc2ccccc2)NC(=O)[C@H](CCN)NC(=O)[C@@H](NC(=O)[C@H](CCN)NC(=O)[C@@H](NC(=O)[C@H](CCN)NC(=O)CCCCCCC)[C@@H](C)O)CCNC(=O)[C@H]([C@@H](C)O)NC(=O)[C@H](CCN)NC(=O)[C@H](CCN)NC1=O | cell growth or viability, MTT | – | 48 h | IC50 | ~1280 µg/mL
COc1ccc2nccc(CC[C@H]3OC[C@H](NC(=O)c4ccc5c(c4)NC(=O)CO5)CO3)c2c1 | cytotoxicity | – | 24 h | IC50 | > 128 µg/mL
COc1ccc2c(c1)c1c(n2CO)CN2CCc3cc(OC)c(OCc4ccccc4)cc3C2C1 (stereo not drawn) | cell growth or viability | – | 20 µM, 24 h | viability | 107%

Repeated from above:
Compound | assay | system | conditions | endpoint | value
COc1ccc2nccc(CC[C@H]3OC[C@H](NC(=O)c4ccc5c(c4)NC(=O)CO5)CO3)c2c1 | cytotoxicity | – | 24 h | IC50 | > 128 µg/mL
